Assay results gathered from unrelated publications.
Numbered parts are unrelated; each lists some results of a single study. Changes are numbered by the printed parent chain.

Study 1 — method: protein-binding microarray; molecule type: hairpin DNA; sample: in vitro; tested at: not given; relative to: not given; direction: higher = stronger binding; quantity: median fluorescence
Target: Runt-related transcription factor 1, full length (RUNX1, Homo sapiens, UniProt Q01196-8, residues 1-480)
Setting: whole hairpin DNA, median over replicate spots
GAGGCCTGTCGCGGTTGGCCTCCTGGCCAACCGCGACAGGCCTCACACTC (5mC at 6): 2630 a.u.
GAGGCCTGTTGCGCGTGGCCTCCTGGCCACGCGCAACAGGCCTCACACTC: 1870 a.u.
GAGGCCTGTTGCTGTTGGCCTCCTGGCCAACAGCAACAGGCCTCACACTC: 1690 a.u.
CTCAGTTCGGTGGGCTGGACTCCTGTCCAGCCCACCGAACTGAGACACTC: 1960 a.u.
GAGGCCTGTAGCGGTTGGCCTCCTGGCCAACCGCTACAGGCCTCACACTC: 2420 a.u.
CTCAGTTCTGTGGTCTGGACTCCTGTCCAGACCACAGAACTGAGACACTC: 2590 a.u.
GAGGCCTGTTGCGGTCGGCCTCCTGGCCGACCGCAACAGGCCTCACACTC (5mC at 16 28): 4710 a.u.
GAGGCCCAACCGCCACAGCCTCCTGGCTGTGGCGGTTGGGCCTCACACTC: 2820 a.u.

Study 2 — method: universal PBM; molecule type: double-stranded DNA, one strand shown; sample: in vitro; tested at: 600 nM; direction: higher = stronger binding; quantity: E-score
Target: Sal-like protein 4, full length isoform A (SALL4, Homo sapiens, UniProt Q9UJQ4, residues 1-1053)
UniProt Q9UJQ4, sequence (whole entry, looked up): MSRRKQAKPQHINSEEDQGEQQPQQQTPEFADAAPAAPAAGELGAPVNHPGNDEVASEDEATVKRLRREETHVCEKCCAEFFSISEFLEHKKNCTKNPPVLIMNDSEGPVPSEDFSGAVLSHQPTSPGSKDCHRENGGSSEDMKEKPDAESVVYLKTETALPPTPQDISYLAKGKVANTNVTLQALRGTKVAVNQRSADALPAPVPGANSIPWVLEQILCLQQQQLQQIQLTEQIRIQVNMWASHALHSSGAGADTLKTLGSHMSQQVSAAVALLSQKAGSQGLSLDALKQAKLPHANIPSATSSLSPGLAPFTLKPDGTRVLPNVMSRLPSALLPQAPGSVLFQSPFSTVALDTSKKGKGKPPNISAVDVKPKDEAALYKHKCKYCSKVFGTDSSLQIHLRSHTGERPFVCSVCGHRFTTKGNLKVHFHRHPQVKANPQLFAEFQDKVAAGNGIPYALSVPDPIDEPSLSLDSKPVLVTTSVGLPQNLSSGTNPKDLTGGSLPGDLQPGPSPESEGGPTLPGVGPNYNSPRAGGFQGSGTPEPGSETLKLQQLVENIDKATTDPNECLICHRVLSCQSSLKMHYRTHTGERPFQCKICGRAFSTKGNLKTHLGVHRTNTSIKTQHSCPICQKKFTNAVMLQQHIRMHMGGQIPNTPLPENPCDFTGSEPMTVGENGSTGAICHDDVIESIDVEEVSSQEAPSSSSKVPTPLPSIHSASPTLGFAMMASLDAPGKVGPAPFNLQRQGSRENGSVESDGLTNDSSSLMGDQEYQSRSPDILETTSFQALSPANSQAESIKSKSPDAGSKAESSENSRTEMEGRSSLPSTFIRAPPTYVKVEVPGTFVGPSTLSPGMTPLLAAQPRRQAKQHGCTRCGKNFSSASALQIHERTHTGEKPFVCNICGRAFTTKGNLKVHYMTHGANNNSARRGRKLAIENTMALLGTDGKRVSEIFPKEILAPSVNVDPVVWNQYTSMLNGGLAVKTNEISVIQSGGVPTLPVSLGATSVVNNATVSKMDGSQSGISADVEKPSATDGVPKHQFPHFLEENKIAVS
Setting: 8-mer, flanks averaged, mean of replicates
CACACAAC: 0.0371
TCTGCAAA: 0.148
ACCTCAGT: 0.0615
GAGAGACA: -0.109
CGCACTAA: -0.012
CAAGAAAA: 0.224
ATTCGCGG: 0.101
CAGGGCCA: -0.304

Study 3 — method: protein-binding microarray; molecule type: double-stranded DNA, one strand shown; sample: in vitro; tested at: 250 nM; setting: 60-bp whole probe; together with: salmon DNA 0.4 mg/ml; relative to: random background probes; direction: higher = stronger binding; quantity: log fluorescence; all sequences stand within: GCCTAGCAC … GTCTTGATTCGCTTGACGCTGCTG
Target: Interferon regulatory factor 7, full length, phosphomimetic (IRF7, Homo sapiens, UniProt Q92985, residues 1-503, S101K/S471D/S472D/S475D/S476D/S477D/S483D/S484D/S487D)
UniProt Q92985, sequence (whole entry, unmodified, looked up): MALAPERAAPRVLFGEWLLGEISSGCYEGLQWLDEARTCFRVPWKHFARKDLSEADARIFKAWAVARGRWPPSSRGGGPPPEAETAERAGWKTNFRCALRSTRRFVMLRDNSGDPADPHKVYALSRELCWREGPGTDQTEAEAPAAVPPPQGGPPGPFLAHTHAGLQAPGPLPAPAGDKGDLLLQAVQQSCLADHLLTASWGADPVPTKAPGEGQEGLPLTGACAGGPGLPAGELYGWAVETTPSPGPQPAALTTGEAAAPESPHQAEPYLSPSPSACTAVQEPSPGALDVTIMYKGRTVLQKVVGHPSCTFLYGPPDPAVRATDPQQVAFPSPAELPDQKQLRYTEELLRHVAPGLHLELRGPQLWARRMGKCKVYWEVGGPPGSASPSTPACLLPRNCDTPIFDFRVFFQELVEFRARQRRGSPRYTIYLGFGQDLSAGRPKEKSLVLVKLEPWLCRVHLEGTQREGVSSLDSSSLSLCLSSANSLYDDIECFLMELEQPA
TCAGCTTTCTCTTTCACACTGTGCTAG: 0.649 z-score
TTAGGTACCGGTCTCGGTTAGTGCTAG: 1.87 z-score
TTAGGACTCCTTTTCCTTTAGTGCTAG: 1.58 z-score
GACGGTTTCGGGTATCGGTACGTGCTA: 7.48 z-score
TTAGAACTGAAACTGGATTAGTGCTAG: 0.516 z-score
TTAGATATCGGGTTTCGATTAGTGCTA: 7.06 z-score
AAACCATCCTGTATGGATGTGTGCTAG: -0.0913 z-score
TCATTTTTGTATTTTTGACTGTGCTAG: 1.09 z-score

Mixed results — starting sequence: viral docking peptide; KGVKRKLFAEDSS
E10T — normalised enrichment score (CCND1, cyclin fold, Cln2 fusion (human); yeast growth competition, sequencing; yeast; strong parent motif; relative to: not given, higher = stronger binding): 0.409

For quick reference, copied from above (study 1):
GAGGCCTGTAGCGGTTGGCCTCCTGGCCAACCGCTACAGGCCTCACACTC: 2420 a.u.
CTCAGTTCTGTGGTCTGGACTCCTGTCCAGACCACAGAACTGAGACACTC: 2590 a.u.
